Values quoted from earlier work as cited in several papers.
Compare with care: the assays were run in different laboratories. ± marks the error that the study gave.
PA endonuclease domain: Polymerase acidic protein, endonuclease domain (PA, Influenza A virus, UniProt C3W5S0)
SLC6A2: Sodium-dependent noradrenaline transporter (SLC6A2, Homo sapiens, UniProt P23975)
Sequence of UniProt P23975 (whole entry, looked up): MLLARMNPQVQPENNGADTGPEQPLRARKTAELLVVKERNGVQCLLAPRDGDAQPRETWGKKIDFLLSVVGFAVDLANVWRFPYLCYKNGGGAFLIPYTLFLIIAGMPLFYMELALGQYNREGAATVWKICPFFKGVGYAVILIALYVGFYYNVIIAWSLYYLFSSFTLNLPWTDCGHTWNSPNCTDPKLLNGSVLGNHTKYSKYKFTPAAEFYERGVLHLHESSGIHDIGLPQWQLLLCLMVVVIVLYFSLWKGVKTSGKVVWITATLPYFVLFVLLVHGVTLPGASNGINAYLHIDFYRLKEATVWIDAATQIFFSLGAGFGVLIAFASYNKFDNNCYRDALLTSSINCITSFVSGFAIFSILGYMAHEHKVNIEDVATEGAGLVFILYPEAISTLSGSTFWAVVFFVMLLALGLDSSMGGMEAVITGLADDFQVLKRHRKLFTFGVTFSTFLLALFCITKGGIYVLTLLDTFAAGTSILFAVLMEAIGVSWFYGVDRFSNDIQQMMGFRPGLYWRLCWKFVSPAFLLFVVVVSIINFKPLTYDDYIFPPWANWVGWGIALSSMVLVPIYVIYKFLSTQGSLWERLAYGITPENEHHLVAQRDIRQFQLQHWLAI
SLC6A4: Sodium-dependent serotonin transporter (SLC6A4, Homo sapiens, UniProt P31645)
Sequence of UniProt P31645 (whole entry, looked up): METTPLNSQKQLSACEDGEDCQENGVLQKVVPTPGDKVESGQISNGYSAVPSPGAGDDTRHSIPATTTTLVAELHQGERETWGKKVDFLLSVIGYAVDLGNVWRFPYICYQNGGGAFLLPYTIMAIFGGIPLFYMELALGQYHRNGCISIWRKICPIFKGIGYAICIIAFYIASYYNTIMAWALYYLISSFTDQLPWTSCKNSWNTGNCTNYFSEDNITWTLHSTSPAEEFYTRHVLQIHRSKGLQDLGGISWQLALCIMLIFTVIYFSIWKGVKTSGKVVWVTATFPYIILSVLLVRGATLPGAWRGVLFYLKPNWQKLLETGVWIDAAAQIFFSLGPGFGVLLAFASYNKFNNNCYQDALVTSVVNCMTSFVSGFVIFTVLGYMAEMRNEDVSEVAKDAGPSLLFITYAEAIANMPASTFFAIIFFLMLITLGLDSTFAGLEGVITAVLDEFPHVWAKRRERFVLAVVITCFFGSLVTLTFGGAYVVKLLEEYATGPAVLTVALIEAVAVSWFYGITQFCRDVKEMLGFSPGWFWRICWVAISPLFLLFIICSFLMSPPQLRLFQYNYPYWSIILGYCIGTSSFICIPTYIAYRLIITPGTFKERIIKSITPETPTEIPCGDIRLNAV
Slc6a3: Sodium-dependent dopamine transporter (Slc6a3, Rattus norvegicus, UniProt P23977)
Sequence of UniProt P23977 (whole entry, looked up): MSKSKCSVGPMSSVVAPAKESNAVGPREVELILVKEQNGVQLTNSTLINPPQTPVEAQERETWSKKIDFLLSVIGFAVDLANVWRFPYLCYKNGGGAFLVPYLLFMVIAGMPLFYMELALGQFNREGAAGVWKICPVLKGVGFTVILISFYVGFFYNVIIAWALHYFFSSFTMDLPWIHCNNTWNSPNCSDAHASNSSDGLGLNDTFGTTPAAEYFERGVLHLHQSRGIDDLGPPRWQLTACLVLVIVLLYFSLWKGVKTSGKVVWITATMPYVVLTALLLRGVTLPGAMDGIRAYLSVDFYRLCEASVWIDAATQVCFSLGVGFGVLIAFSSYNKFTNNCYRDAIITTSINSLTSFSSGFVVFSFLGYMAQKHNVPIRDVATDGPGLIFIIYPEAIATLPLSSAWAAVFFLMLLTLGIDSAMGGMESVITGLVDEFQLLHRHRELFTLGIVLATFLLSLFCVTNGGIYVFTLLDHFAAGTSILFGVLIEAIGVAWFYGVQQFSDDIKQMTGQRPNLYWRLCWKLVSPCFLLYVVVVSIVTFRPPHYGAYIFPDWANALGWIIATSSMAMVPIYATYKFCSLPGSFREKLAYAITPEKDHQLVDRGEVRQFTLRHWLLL
Sequence of UniProt P47746 (whole entry, looked up): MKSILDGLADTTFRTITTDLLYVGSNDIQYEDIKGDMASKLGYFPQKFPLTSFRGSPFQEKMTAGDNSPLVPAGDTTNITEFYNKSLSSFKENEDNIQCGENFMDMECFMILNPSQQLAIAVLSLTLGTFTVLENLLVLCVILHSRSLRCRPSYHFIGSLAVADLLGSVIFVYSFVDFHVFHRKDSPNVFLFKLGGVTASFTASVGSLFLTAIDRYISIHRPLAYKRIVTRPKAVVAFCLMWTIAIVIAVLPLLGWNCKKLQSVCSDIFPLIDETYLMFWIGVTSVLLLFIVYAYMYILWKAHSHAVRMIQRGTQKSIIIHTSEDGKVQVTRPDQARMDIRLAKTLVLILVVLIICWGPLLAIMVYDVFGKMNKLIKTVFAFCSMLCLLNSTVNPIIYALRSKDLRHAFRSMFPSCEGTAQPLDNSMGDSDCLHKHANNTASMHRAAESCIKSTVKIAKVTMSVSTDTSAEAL
Sequence of UniProt P31652 (whole entry, looked up): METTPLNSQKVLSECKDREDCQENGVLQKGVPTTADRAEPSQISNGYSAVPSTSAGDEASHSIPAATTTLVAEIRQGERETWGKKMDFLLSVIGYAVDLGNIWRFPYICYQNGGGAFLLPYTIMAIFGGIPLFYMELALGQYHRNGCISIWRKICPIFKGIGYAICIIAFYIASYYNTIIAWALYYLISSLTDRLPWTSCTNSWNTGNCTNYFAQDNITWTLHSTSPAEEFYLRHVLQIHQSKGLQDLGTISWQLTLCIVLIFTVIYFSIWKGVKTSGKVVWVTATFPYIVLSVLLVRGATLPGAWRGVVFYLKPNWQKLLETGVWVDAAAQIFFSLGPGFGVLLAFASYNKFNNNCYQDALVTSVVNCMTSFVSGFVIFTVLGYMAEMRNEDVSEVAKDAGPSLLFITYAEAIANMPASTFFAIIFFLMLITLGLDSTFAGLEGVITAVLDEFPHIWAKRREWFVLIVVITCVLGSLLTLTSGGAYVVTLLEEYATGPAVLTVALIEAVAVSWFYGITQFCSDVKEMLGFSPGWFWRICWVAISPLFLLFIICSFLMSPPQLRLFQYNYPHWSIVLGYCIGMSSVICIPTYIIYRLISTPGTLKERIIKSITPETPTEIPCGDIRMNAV

O=c1[nH]c(-c2ccc(-c3nnn[nH]3)cc2)c(-c2ccc(F)cc2)cc1O
IC50 (PA endonuclease domain; inhibitor): 0.023 µM

Oc1c(Cl)cc(Cl)c2cccnc12
IC50 (Replicase polyprotein 1ab, papain-like protease (rep, Severe acute respiratory syndrome coronavirus 2, UniProt P0DTD1); PLpro inhibition, inhibitor; ISG15 binding): < 10 µM

C=CCN(CC=C)CCc1c[nH]c2ccccc12
Ki (SLC6A2; binding; with: [3H]nisoxetine): 1.12 µM

CCCC(NC)C(=O)c1ccccc1 (centres unmarked)
IC50 (SLC6A4; [3H]serotonin uptake, inhibitor; HEK293 expressing SLC6A4): 9 ± 2.3 µM

C[C@]12CC[C@@H](O)C[C@@H]1CC[C@@H]1[C@@H]2CC[C@]2(C)C(=O)CC[C@@H]12
IC50 (GABAA receptor picrotoxin site, rat; binding; rat brain membranes): 0.414 ± 0.127 µM

CNC(C)C(=O)c1ccc2c(c1)OCO2 (centres unmarked)
IC50 (Sodium-dependent serotonin transporter (Slc6a4, Rattus norvegicus, UniProt P31652)): 1.02 ± 0.059 µM

CNC1(c2ccccc2Cl)CCCCC1=O (racemic)
IC50 (α3β4 nicotinic acetylcholine receptor; non-competitive inhibitor): 9.5 µM

CCCC(NC)C(=O)c1ccc2c(c1)OCO2 (centres unmarked)
IC50 (SLC6A4; [3H]serotonin uptake, inhibitor; HEK293 expressing SLC6A4): 0.81 ± 0.14 µM

Cc1ccc(C(=O)C(C)NC2CC2)cc1Cl (centres unmarked)
IC50 (Slc6a3; dopamine uptake, inhibitor; rat brain synaptosomes): 0.592 ± 0.031 µM

C=CCN(CC=C)CCc1c[nH]c2ccc(F)cc12
Ki (SLC6A2): 1.82 µM

CCCC(C(=O)c1ccc2c(c1)OCO2)N1CCCC1 (centres unmarked)
IC50 (Slc6a3; uptake; rat brain synaptosomes): 0.0041 ± 0.0005 µM

N#Cc1ccc(-c2cc(O)c(=O)[nH]c2-c2ccc(F)cc2)cc1
IC50 (PA endonuclease domain; inhibitor): 0.136 µM

CNC(C)C(=O)c1ccc(C)cc1 (centres unmarked)
IC50 (Transporter (Slc6a2, Rattus norvegicus, UniProt Q63380)): 0.487 ± 0.066 µM

CCCCCn1cc(C(=O)c2cccc3ccccc23)c2ccccc21
IC50 (Cannabinoid receptor 1 (Cnr1, Mus musculus, UniProt P47746); EPSC suppression; autaptic hippocampal neurons): 0.0149 µM

Excerpt of the above:
C[C@]12CC[C@@H](O)C[C@@H]1CC[C@@H]1[C@@H]2CC[C@]2(C)C(=O)CC[C@@H]12
IC50 (GABAA receptor picrotoxin site, rat; binding; rat brain membranes): 0.414 ± 0.127 µM

CNC(C)C(=O)c1ccc2c(c1)OCO2 (centres unmarked)
IC50 (Sodium-dependent serotonin transporter (Slc6a4, Rattus norvegicus, UniProt P31652)): 1.02 ± 0.059 µM
